Measurements collected from several papers.
± gives the spread as reported.
Cell line: HCT-116

SMILES = N#CC(=Cc1ccc([N+](=O)[O-])cc1)C(=O)Nc1nnc(NC(=O)c2ccccc2)s1; read-out = cell growth or viability; method = MTT; time = 48 h; IC50 = 51.4 µM
SMILES = CC(C)c1cccc(C(C)C)c1-n1ccn(-c2c(C(C)C)cccc2C(C)C)[c]1=[Au][Cl]; read-out = cell viability; time = 72 h; IC50 = 39.7 ± 4.9 µM
SMILES = Cc1ccc(NCC(=O)n2ncc3c2ncn2nc(SCCO)nc32)cc1; read-out = cell growth or viability; method = MTT; time = 48 h; IC50 = 0.099 µM
SMILES = N#CCC(=O)Nc1nnc(NC(=O)c2ccccc2)s1; read-out = cell growth or viability; method = MTT; time = 48 h; IC50 = 25.7 µM
SMILES = O=c1[nH]c2ccccc2nc1/C=C/c1ccccc1[N+](=O)[O-]; read-out = cell growth or viability; method = MTT; time = 72 h; IC50 = > 50 µM
SMILES = COc1cc(-c2ccc(C(=O)N/N=C/c3ccc([N+](=O)[O-])cc3)c(C)n2)cc(OC)c1OC; read-out = cell growth or viability; method = MTT; IC50 = 4.5 µM
SMILES = COc1ccc(-n2c(SCC(=O)NNC(=O)NCc3ccccc3)nc3ccccc3c2=O)cc1; IC50 = 91.2 ± 4.9 µM
SMILES = N#CC(C(=O)Nc1nnc(NC(=O)c2ccccc2)s1)=C1Nc2ccccc2N1; read-out = cell growth or viability; method = MTT; time = 48 h; IC50 = 56.9 µM
SMILES = COc1ccc(NC(=O)NNC(=O)CSc2nc3ccccc3c(=O)n2-c2ccc(OC)cc2)cc1; IC50 = > 100 µM
SMILES = O=c1c(/C=C/c2ccccc2Cl)nc2ccccc2n1Cc1ccccc1; read-out = cell growth or viability; method = MTT; time = 72 h; IC50 = > 50 µM
SMILES = COC(CSc1nc2c3cnn(C(=O)CNc4ccc(F)cc4)c3ncn2n1)OC; read-out = cell growth or viability; method = MTT; time = 48 h; IC50 = 0.071 µM
SMILES = COc1ccc(C=C(C#N)C(=O)Nc2nnc(NC(=O)c3ccccc3)s2)cc1; time = 48 h; IC50 = 8.15 ± 0.7 µM
SMILES = COc1cc(O)c2c(c1)O[C@H](c1ccc(O)c(OC)c1)[C@@H](O)C2=O; read-out = cell growth or viability; method = MTT; time = 48 h; IC50 = 33 µg/mL
SMILES = Cc1ccc(NCC(=O)n2ncc3c2ncn2nc(SCC(O)CO)nc32)cc1 (centres unmarked); read-out = cell growth or viability; method = MTT; time = 48 h; IC50 = 0.038 µM
SMILES = CN1CCC2(CC1)C/C(=N\N=C\c1ccc(Cl)cc1)c1ccccc1O2; time = 48 h; IC50 = 13.5 ± 0.57 µM
SMILES = O=c1[nH]c2ccccc2nc1/C=C/c1ccccc1F; read-out = cell growth or viability; method = MTT; time = 72 h; IC50 = > 50 µM
SMILES = C=CC(=O)Nc1nc(-c2ccc(O)cc2)cs1; read-out = cell viability; method = MTT; time = 72 h; IC50 = 12.5 µM
SMILES = O=c1c(/C=C/c2ccccc2Br)nc2ccccc2n1Cc1ccccc1; read-out = cell growth or viability; method = MTT; time = 72 h; IC50 = > 50 µM
SMILES = O=c1c(O)c(-c2ccc(O)c(O)c2)oc2cc(O)cc(O)c12; read-out = cell growth or viability; method = MTT; time = 48 h; IC50 = 36 µg/mL
SMILES = Cc1cc(C)n(-c2nnc(NC(=O)c3ccccc3)s2)c(=O)c1C#N; read-out = cell growth or viability; method = MTT; time = 48 h; IC50 = 12.8 µM
SMILES = Cc1ccc(NCC(=O)n2ncc3c2ncn2[nH]c(=S)nc32)cc1; read-out = cell growth or viability; method = MTT; time = 48 h; IC50 = 0.767 µM
SMILES = Cc1ccc(NC(=O)NNC(=O)CSc2nc3ccccc3c(=O)n2-c2ccc(Cl)cc2)cc1; IC50 = 67.7 ± 3.8 µM
SMILES = O=C(CNc1ccc(F)cc1)n1ncc2c1ncn1nc(SCCO)nc21; read-out = cell growth or viability; method = MTT; time = 48 h; IC50 = 0.587 µM
SMILES = N#CC(C(=O)Nc1nnc(NC(=O)c2ccccc2)s1)=C1Nc2ccccc2O1; time = 48 h; IC50 = 5.98 ± 0.3 µM
SMILES = O=c1c(/C=C/c2ccccc2)nc2ccccc2n1Cc1ccccc1; read-out = cell growth or viability; method = MTT; time = 72 h; IC50 = > 50 µM
SMILES = CCSc1nnc(-c2ccc(-c3cc(OC)c(OC)c(OC)c3)nc2C)o1; read-out = cell growth or viability; method = MTT; IC50 = 9.74 µM
SMILES = Cn1c(=O)c(/C=C/c2ccccn2)nc2ccccc21; read-out = cell growth or viability; method = MTT; time = 72 h; IC50 = 7.62 µM
SMILES = Cc1ccc(-n2c(SCC(=O)NNC(=O)Nc3ccc(F)cc3)nc3ccccc3c2=O)cc1; IC50 = 39.8 ± 2.3 µM
SMILES = COc1cc(-c2ccc(C(=O)N/N=C/c3cc(Cl)ccc3Cl)c(C)n2)cc(OC)c1OC; read-out = cell growth or viability; method = MTT; IC50 = 21.2 µM
SMILES = Cc1ccc(NC(=O)NNC(=O)CSc2nc3ccccc3c(=O)n2-c2ccc(C)cc2)cc1; IC50 = 69.4 ± 3.7 µM
SMILES = O=c1c(/C=C/c2ccccc2F)nc2ccccc2n1Cc1ccccc1; read-out = cell growth or viability; method = MTT; time = 72 h; IC50 = > 50 µM
SMILES = COc1ccc(-n2c(SCC(=O)NNC(=O)Nc3ccc(F)cc3)nc3ccccc3c2=O)cc1; IC50 = 2.83 ± 0.1 µM
SMILES = Cn1c(=O)c(/C=C/c2ccccc2Br)nc2ccccc21; read-out = cell growth or viability; method = MTT; time = 72 h; IC50 = 19.5 µM
SMILES = COc1cc(-c2ccc(C(=O)N/N=C/c3ccncc3)c(C)n2)cc(OC)c1OC; read-out = cell growth or viability; method = MTT; IC50 = 13.3 µM
SMILES = N#CC(C(=O)Nc1nnc(NC(=O)c2ccccc2)s1)=C1Oc2cccnc2O1; read-out = cell growth or viability; method = MTT; time = 48 h; IC50 = 18.3 µM
SMILES = O=C(CSc1nc2ccccc2c(=O)n1-c1ccc(Cl)cc1)NNC(=O)Nc1ccc(F)cc1; IC50 = 24.8 ± 1.9 µM
SMILES = COc1cc(-c2ccc(-c3nnc(SC)o3)c(C)n2)cc(OC)c1OC; read-out = cell growth or viability; method = MTT; IC50 = 14.1 µM
SMILES = CN(C)C/C=C/C(=O)Nc1cc2c(Nc3ccc(F)c(Cl)c3)ncnc2cc1O[C@H]1CCOC1; time = 48 h; IC50 = 10 ± 0.47 µM
SMILES = Cc1ccc(-n2c(SCC(=O)NNC(=O)Nc3ccc(C(F)(F)F)cc3Cl)nc3ccccc3c2=O)cc1; IC50 = 45 ± 2.5 µM
SMILES = CC(=O)c1nc2ccccc2n1Cc1cn([C@@H]2OC[C@@H](O)[C@H](O)[C@H]2O)nn1; read-out = cell growth or viability; method = LDH; time = 48 h; IC50 = 5.7 µM
SMILES = COc1cc(C=C(C#N)C(=O)Nc2nnc(NC(=O)c3ccccc3)s2)ccc1O; read-out = cell growth or viability; method = MTT; time = 48 h; IC50 = 10.9 µM
SMILES = CC(=O)OCC(CSc1nc2c3cnn(C(=O)CNc4ccc(C)cc4)c3ncn2n1)OC(C)=O (centres unmarked); read-out = cell growth or viability; method = MTT; time = 48 h; IC50 = 0.091 µM
SMILES = CC(C)=CCC/C(C)=C/CC/C(C)=C/CC/C=C(\C)CC/C=C(\C)CCC=C(C)C; read-out = cell growth or viability; method = resazurin; time = 96 h; IC50 = 9.96 µg/mL
SMILES = O=C(CNc1ccc(F)cc1)n1ncc2c1ncn1[nH]c(=S)nc21; read-out = cell growth or viability; method = MTT; time = 48 h; IC50 = 0.926 µM

For quick reference, copied from above:
SMILES = Cc1ccc(NC(=O)NNC(=O)CSc2nc3ccccc3c(=O)n2-c2ccc(Cl)cc2)cc1; IC50 = 67.7 ± 3.8 µM
SMILES = Cc1ccc(-n2c(SCC(=O)NNC(=O)Nc3ccc(F)cc3)nc3ccccc3c2=O)cc1; IC50 = 39.8 ± 2.3 µM
SMILES = O=c1c(/C=C/c2ccccc2Cl)nc2ccccc2n1Cc1ccccc1; read-out = cell growth or viability; method = MTT; time = 72 h; IC50 = > 50 µM
SMILES = O=C(CNc1ccc(F)cc1)n1ncc2c1ncn1[nH]c(=S)nc21; read-out = cell growth or viability; method = MTT; time = 48 h; IC50 = 0.926 µM
